Measured values collected from several papers.
Numbered parts are unrelated; each lists some results of a single study.

Study 1
Target: Max dimerization protein 1, bHLH-zipper, MAX partner unstated (MXD1, Homo sapiens, UniProt Q05195, residues 56-136)
Method: protein-binding microarray
Form: double-stranded DNA, one strand shown
Sample: in vitro
Concentration: not given
Setting: k-mer, scored over probes, only values ≥0.25
Reading: higher = stronger binding
Residues (chain): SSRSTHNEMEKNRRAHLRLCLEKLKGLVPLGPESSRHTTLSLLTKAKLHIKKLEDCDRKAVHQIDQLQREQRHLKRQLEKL
`AACCACAT` gave an E-score of 0.33.
`CGTGTTCC` has an E-score of 0.369.
`ACAACATG` has an E-score of 0.352.
With `CTCGTGGC` the E-score was 0.408.
With `GGCGGGCA` the E-score was 0.274.
With `ACGCATGG` the E-score was 0.461.
For `CCCCCGCC`, the E-score was 0.286.
For `ACCACCCC`, the E-score was 0.268.
With `ACATGCTC` the E-score was 0.387.
For `CCACGAGC`, the E-score was 0.301.
`GCATGGTA` gave an E-score of 0.43.
The E-score of `CCACATGC` is reported as 0.451.
`CCCTACCA` gave an E-score of 0.268.
`GCCCACCC` has an E-score of 0.396.
With `CGTGTGTC` the E-score was 0.33.
`CACGCACG` gave an E-score of 0.326.
`CATGGAAA` gave an E-score of 0.321.
`AGAACACG` gave an E-score of 0.388.
For `CGTGTCAC`, the E-score was 0.315.
The E-score of `ACCTGTTC` is reported as 0.289.
For `ATGCGGAC`, the E-score was 0.287.
For `CAGCATGC`, the E-score was 0.417.
With `CCACGTTC` the E-score was 0.33.

Study 2
Target: RNA binding protein fox-1 homolog 2, RRM domain, GST-SBP tag (RBFOX2, Homo sapiens, UniProt O43251-10, residues 100-194)
Method: RNA Bind-n-Seq
Form: RNA
Sample: in vitro
Concentration: 365 nM
Setting: natural RNA segment, single round, ends assumed
Reference: no-protein control
Reading: higher = stronger binding
Shared flanks, not repeated: GGGAGUUCUACAGUCCGACGAUC … UGGAAUUCUCGGGUGCCAA
Target sequence (chain): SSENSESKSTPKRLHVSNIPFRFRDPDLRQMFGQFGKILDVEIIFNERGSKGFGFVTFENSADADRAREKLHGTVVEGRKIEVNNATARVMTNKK
For `UUCCAUUUUCCAGCUAUAGAGAGAAACAAUCCAGCUGCCUGGAAACUGUUAUUAGUAUAGAAGUGGCUUAAAGAAAAGCAUCUUCAAAUACUUGACUUAGCAUAUCUUUC`, “RBNS enrichment (R)” read 0.423.
`CAUUACACUCCCCCCUACCUUUCGCCCCCUCCUCACCAUUAUUGAGACCACCAAAGAUUCCCUGUCCAUGACCUCUGAGGCGGGGUUACCUUGCUUGUCGGACCAAGGCA` — result for “RBNS enrichment (R)”: 0.466.
For `GGCAAGAGAAUCACUUGAACCCGGGAGGUGGAGGUGGCAGUGAGCCGAGAUUGCGCCAUUGCACUCCAGCCUGGGCAAAAAGAGUGAGACUCUGUCUCAAAAAAAAAACA`, “RBNS enrichment (R)” read 0.425.
For `AACCUGUGUUGUCCUAGACCCUGUCGGGGCAGUCAGGGGACACUAGAGAUUUGAUCUCAUGCGAGUCAUCAAUAGGACAAAAAAGUUGUGGUUUGGGGAGGUCUGUUUGU`, “RBNS enrichment (R)” read 0.797.
Under “RBNS enrichment (R)”, `CUGAGUAACCCAGACCCCCCACCGUGGUUCUUUUCACAGCCCUCGACUUUGCACUUAAAAAGGGAUAUUGUAAAUGAAAGGCUGCAGUGCCAGUUUUAAGAAAGAAUUUC` is recorded as 1.95.
Under “RBNS enrichment (R)”, `AGAACUGCUGAGCGAGCUACUGGAAAGCCGUUUACACCAGACAGGCAGAGAGCAGAGAGCAGCCACUGUCACUAUCUUGCCAUCUCAUUCAGGGUCCUCUGAAAGUUACC` is recorded as 0.378.
Under “RBNS enrichment (R)”, `AUAAAGUGUGUAGCCAGAAGAGUACUUUUUUUUUUGUAACCACUGUCUUGAUGGCAAAAUAAUUAUGGUAAAAAACAAGUCUCGUGUUUAUUAUUCCUUAAGAACUCUGU` is recorded as 0.294.
Under “RBNS enrichment (R)”, `UUCCCUGAGGGUCCUCAGGGUGGAGGACAGGUUUGGCCCAGAAAGACUAGCCAGAGGCCUGAUGGUCCCAGGUGGCUCUGGAUAUACUUUGGAUAUGGAUUUAAAUGGUC` is recorded as 0.248.
`GAAGAACACUUUUCUUGGCUACAUUUGGAGGAUACCCAGGGAGUCUUGGGUGUUCCUUAUCUGGGGAAGCAAACAUUUCACUAGUCUCUUUUUUUCAUCCUUUAAAUUGU`: “RBNS enrichment (R)” 0.339.
`UGACAGUUUUUCACAUUUUGCUCACCCGGGGCACCCGUGGUCUGUGCUUGCUCUGACUCCUUGUUGCAGGGCAUAAAUGUGCCCCCCCCUCCACGCGCUGAUCGAUACUC`: “RBNS enrichment (R)” 0.862.
`AUAAAAUUUACCAAGUAAUAGAUCAGUACUCACUAAUAUUUUUGAGACCAUAGUUGUCUGGUCAGAAAAAUUAUAUUAAAUUAGUAAAUUCUAGAAGCUCUUUAAAAGGG` — result for “RBNS enrichment (R)”: 0.755.
`AAUAGUUGAACUUGACAGCAUAUAACUUAAAGUGAAAAUGUUUUUGCCAGAACAUGUCUUGGUACCUUGUGAAAGCAGGCUGCCCUUGUUCUUGAGAUAGACUUUAAAAU`: “RBNS enrichment (R)” 0.415.

Study 3
Target: Ras GTPase-activating protein-binding protein 1, full length (G3BP1, Homo sapiens, UniProt Q13283)
Chain of UniProt Q13283 (whole entry, looked up): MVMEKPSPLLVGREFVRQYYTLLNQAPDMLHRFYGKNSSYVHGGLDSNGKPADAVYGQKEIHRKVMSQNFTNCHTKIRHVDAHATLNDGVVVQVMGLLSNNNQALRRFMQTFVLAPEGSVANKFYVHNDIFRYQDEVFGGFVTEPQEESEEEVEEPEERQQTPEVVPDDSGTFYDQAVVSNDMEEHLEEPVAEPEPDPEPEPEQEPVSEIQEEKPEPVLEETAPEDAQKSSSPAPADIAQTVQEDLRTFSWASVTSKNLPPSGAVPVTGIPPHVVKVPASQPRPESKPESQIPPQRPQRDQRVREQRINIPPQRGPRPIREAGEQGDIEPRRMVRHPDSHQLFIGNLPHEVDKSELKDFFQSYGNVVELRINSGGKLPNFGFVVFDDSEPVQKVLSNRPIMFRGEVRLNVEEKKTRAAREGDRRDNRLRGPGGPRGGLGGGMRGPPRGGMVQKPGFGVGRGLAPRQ
Method: RNA Bind-n-Seq
Form: RNA
Sample: in vitro
Concentration: 200 nM
Setting: whole 134-nt RNA, ends assumed
With: 150 mM KCl
Reference: input library
Reading: higher = stronger binding
Shared flanks, not repeated: GGGAGUUCUACAGUCCGACGAUC … UGGAAUUCUCGGGUGUCAAGG
With `UAACUUUAGAGGAGGAUCUGAUGGAUAUGGCAGUGGACGUGGAUUUGGGGAUGGCUAUAAUGGGUAUGGAGGAGGACCUGGAUGUGGCAA` the log2 enrichment was 0.196.
`ACCAUGCAGGUGGGCAUCUUUGGGAAGUGGGGCAAGGGGGGGAUAGGGAGGGGGGUAACACUUUGGGAACAGGUGGGCCCAGGUCGUUUC` gave a log2 enrichment of 1.14.
For `ACCAUGCAGGUGGGCAUCUUUGGGAAGUGGGGCAAGGGGGGGAUAGGGAGGGGGGUAACACUUUGGGAACAGGUGGUCCCAGGUCGUUGC`, the log2 enrichment was 1.32.
`CACAGACAACACGCACCCACACAGACACAGAGGGUAGGGGUUGGGAUGGGGACAGGGUGCACAGCAGGGCGGGGUAGGACCCCAGCCCCU` gave a log2 enrichment of 1.98.
`CAAGUCCUGUGCUACACAUCGUAUGUACCGAAUCGGGGCCCGGCCCGGCCCGGGGAAAGUAUUAUGUUACGCCGUUCGGAUCUGCACUUC` gave a log2 enrichment of -0.735.
`UGUGCUACACAUCGUAUGUACCGAAUCGGGGAAAAAAAGGGGAAAAAAAGGGGAAAAAAAGGAAAGUAUUAUGUUACGCCGUUCGGAUCU` has a log2 enrichment of -0.406.
For `UAACAUUAGAGGAGGAUCUGAUGGAUAUGGCAGUGGACGUGGAUUUGGGGAUGGCUAUAAUGGGUAUGGAGGAGGACCUGGAGGUGGCAA`, the log2 enrichment was 0.593.
`AAGUCCUGUGCUACACAUCGUAUGUACCGAAUCGGCCCCGGGCCCCGGGCCCCGGGGAAAGUAUUAUGUUACGCCGUUCGGAUCUGCACU` gave a log2 enrichment of -0.857.
`UCCUGUGCUACACAUCGUAUGUACCGAAUCGGGGUUUUUUUGGGGUUUUUGGGGUGGGGAAAGUAUUAUGUUACGCCGUUCGGAUCUGCA` has a log2 enrichment of 0.506.
For `UGGAGCUGAAGAGCCAAGAGGCUCCGAGUCUGCAGCAGCAGCCAGACCAGUACCUGGAGCCCCAGUCCCACAAGGAGCUUGGAUGUGCGG`, the log2 enrichment was -0.634.
With `CUGUGCUACACAUCGUAUGUACCGAAUCGGUUUUUUUGGGGUUUUUUUGGGUUUUUUUGGGAAAGUAUUAUGUUACGCCGUUCGGAUCUG` the log2 enrichment was -0.95.
With `AAGUCCUGUGCUACACAUCGUAUGUACCGAAUCGGGAAAAAAAGGGAGGGAAAGGGAAAGUAUUAUGUUACGCCGUUCGGAUCUGCACUU` the log2 enrichment was 0.233.
The log2 enrichment of `GCAGGAAGUAAAAACAAAUGGAAAUGCUUCGGAUAGUGGCAGGGGUGGGGGUUGCUAAGGACAGGGUGGGAUGGGAGUGGGUAAAGAGUU` is reported as 1.04.
For `CACAGACAACAAGCACCCACACAGACACAGAGGGAAGGGGUUGGGAUGGGGACAGGGUGCACAGCAGGGCGGGGUAGGACCCCAGCCCCU`, the log2 enrichment was 1.92.

Study 4
Target: RING finger protein unkempt homolog, zinc fingers 1-6, GST-SBP tag (UNK, Homo sapiens, UniProt Q9C0B0, residues 30-357)
Chain of UniProt Q9C0B0 (30-357, looked up): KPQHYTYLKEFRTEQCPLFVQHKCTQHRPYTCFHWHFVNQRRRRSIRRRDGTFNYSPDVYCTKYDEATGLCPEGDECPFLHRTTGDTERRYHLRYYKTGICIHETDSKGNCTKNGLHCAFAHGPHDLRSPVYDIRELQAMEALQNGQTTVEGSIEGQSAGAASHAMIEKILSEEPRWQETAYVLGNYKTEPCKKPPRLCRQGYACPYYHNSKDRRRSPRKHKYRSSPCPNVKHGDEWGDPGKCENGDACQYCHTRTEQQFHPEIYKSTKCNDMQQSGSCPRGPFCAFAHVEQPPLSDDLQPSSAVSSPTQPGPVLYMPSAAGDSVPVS
Method: RNA Bind-n-Seq
Form: RNA
Sample: in vitro
Concentration: not given
Setting: RNA with constant flanks, ends assumed
Reference: input RNA pool
Reading: higher = stronger binding
Shared flanks, not repeated: GGGAGUUCUACAGUCCGACGAUC … CAACAGAGGAUUGAGCAUCA
With `UCUGGUGGUGAAUCCUCCAUAGUCUGGAGAUCUCAGCCCUGCUGAGCUGAUGAUGCUGACUACCGGAGAUGUUAUUAAACAACUGAUUGAAGCCCACGAGCAGGGGAAAGACAUCGAUCU` the bound/input enrichment was 0.233 ratio.
For `AAAUUUGACUCAAAUGUGAGUGGUCAGUCCUCUUUCGGGACAUCUCCAGCAGCAGACAACACCGAAAAGGAGGCGCUUCCUCGUUAUGAGCCAAUUCCAUUUAGUGCUUCUAUGAACGAG`, the bound/input enrichment was 0.261 ratio.
With `UCUUUCCAAAGCAAUGUCUAAAAACUCUUUUUUUUAAAGUAACAGUUUGGUAUGUUUAUUGCCGAUAAAUUAUUUUUGAGGCCUUCAUUUUAGCUAAGUUUAGAAUUUAUAUUAGGCAAC` the bound/input enrichment was 8.17 ratio.
For `GAGGAAGAACAAGAAGAGAACCUUGAAGCAAGUGGAGACUAUAAAUAUUCAGGAAGAGACCGUUUGAUUUUUUUGGUUGAUGCCUCCAAGGCUAUGUUUGAAUCUCAGAGUGAAGAUGAG`, the bound/input enrichment was 0.478 ratio.
With `GUGGAGCCGGCGGACGCCUCCGGUACCGAGAAAGCUUUCGAGCCAGCAACCGGCCGAGUGACCGCUACUUUCACAUGUUCAGGAGAAAAGGAAGUAAAUUUGGCUGUUCAAAAUGCAAAG` the bound/input enrichment was 0.13 ratio.
With `AAAAAACCCCGAUUUUAGAUAUUUAGGCUUUCAUUCUAGUUUGGUUUUGUCUUUUCUUGUUCCGAUACCACUUAAAUUCUUGGCAUUUUAGUAAGCAAGCUACCUUUUUAUGGAUGUUAG` the bound/input enrichment was 16.3 ratio.
With `AGUCUUGCAUCUUUACUAGAACUAUUGAAAGGUGUCUUCAGCACAUGUAAAGGGGACCUCUCCGAAGUUACAGAUGGCAAUGUGAAGACCCAGCCUGCAGUCCUAGAGAAUCUGGUCUUC` the bound/input enrichment was 0.144 ratio.
`CCUGCUACAGUUUUUAUGCUCUUUAGUGGCCAAGGAAGUUUGCUCCAGCCUUUUAUAUAUUACCGAUUUCUUACUCUUCGAUAUUCCUCUAGAAGAAAUCCAUAUUGUCGGAACUUGUUU` has a bound/input enrichment of 3.77 ratio.
With `UGUGUGGCCAGAGCUUUCACAGGAGGAAAGCGGGCUGCUGAAUUUAGUCACUGAUCUCUAUCCGCUGUGGCCUAAGGCUAUGCUGAGGUUUAUAUCCCAUUUGUACUGUUGCAGCUCAAA` the bound/input enrichment was 0.248 ratio.
`CUUGAGCCUAACAAGUCCAUCUUCAAGCAAAUGAAAUCUCAUCCACCAUACACCAUGUGCUUCCGAGUGAAAUUCUACCCACAUGAACCCUUGAAGAUUAAAGAAGAGCUCACAAGGUAC` has a bound/input enrichment of 0.231 ratio.
`GAUGUUCUGCCUACUCAGAUCUAUCCUCUCCCCAAGCAGCAGAACCUUCCCAAGAGACCUACCCGUUUGCCUUUGAACACCAAAAAUUCAACAAAAGAGCCCCGGCUAAAAUUUGGCAGC` has a bound/input enrichment of 0.418 ratio.

Repeated from above (study 2):
`GAAGAACACUUUUCUUGGCUACAUUUGGAGGAUACCCAGGGAGUCUUGGGUGUUCCUUAUCUGGGGAAGCAAACAUUUCACUAGUCUCUUUUUUUCAUCCUUUAAAUUGU`: “RBNS enrichment (R)” 0.339.
`UGACAGUUUUUCACAUUUUGCUCACCCGGGGCACCCGUGGUCUGUGCUUGCUCUGACUCCUUGUUGCAGGGCAUAAAUGUGCCCCCCCCUCCACGCGCUGAUCGAUACUC`: “RBNS enrichment (R)” 0.862.
`AUAAAAUUUACCAAGUAAUAGAUCAGUACUCACUAAUAUUUUUGAGACCAUAGUUGUCUGGUCAGAAAAAUUAUAUUAAAUUAGUAAAUUCUAGAAGCUCUUUAAAAGGG` — result for “RBNS enrichment (R)”: 0.755.
